Published values gathered from unrelated publications.
Protocols differ between the studies behind these lines. Values joined by “and” are separate records of one study, mostly repeats; a detail may differ. Numbers after ± are the reported error.
USP13 ZnF-UBD domain: Ubiquitin carboxyl-terminal hydrolase 13, ZnF-UBD domain (USP13, Homo sapiens, UniProt Q92995)
Sequence of UniProt Q92995 (whole entry, looked up): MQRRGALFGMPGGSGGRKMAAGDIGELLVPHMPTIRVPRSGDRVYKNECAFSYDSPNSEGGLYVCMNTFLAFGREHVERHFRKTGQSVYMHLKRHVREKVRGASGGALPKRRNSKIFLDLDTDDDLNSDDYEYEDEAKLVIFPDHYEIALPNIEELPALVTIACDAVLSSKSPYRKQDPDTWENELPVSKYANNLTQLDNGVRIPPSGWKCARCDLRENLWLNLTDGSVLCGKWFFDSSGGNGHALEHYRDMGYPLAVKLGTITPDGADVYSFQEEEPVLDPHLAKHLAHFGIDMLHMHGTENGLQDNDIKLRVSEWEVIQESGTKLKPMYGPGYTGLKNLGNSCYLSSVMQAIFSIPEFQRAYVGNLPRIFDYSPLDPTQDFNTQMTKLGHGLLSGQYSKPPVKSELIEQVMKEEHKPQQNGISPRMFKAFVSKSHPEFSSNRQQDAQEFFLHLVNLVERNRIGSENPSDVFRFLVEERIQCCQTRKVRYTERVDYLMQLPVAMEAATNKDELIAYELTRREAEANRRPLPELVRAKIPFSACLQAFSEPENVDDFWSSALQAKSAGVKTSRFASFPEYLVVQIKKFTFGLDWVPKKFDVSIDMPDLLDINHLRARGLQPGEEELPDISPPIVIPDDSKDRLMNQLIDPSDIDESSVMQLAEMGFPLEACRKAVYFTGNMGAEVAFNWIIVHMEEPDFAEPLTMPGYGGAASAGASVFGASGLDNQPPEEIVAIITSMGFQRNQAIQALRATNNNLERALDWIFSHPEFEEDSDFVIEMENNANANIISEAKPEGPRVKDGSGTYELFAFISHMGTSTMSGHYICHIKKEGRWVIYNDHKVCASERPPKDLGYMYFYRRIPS

`NC[C@H](NC(=O)c1ccc(-c2ccc(Br)cc2)cc1)C(=O)NO` has a solubility of under 2.7 µg/mL (aqueous buffer; pH 7.4).
`CCCc1ccc(-c2ccc(-c3cc(F)c(F)c(F)c3)c(F)c2)cc1` gave a placental accumulation of 1.47 ± 1.76 ng/g (rat, placenta; 10 ng/mL in perfusate, low dose, mixture of 21 LCMs).
`C=CC(=O)N1CCC([C@@H]2CCNc3c(C(N)=O)c(-c4ccc(Oc5ccccc5)cc4)nn32)CC1`: “stability relative error” 5.7% (rat plasma; 800 ng/mL, 4 h, 10 °C, autosampler; reference: nominal concentration).
`CNCc1ccc(-c2[nH]c3cc(F)cc4c3c2CCNC4=O)cc1` gave a vomiting incidence of 66.7% (human patients; oral, 840 mg twice daily, all grades).
With `COc1cccc(-c2n[nH]c(SCc3ccccn3)n2)c1OC` the plasma concentration was 10200 ng/mL (Sprague-Dawley rats, both sexes; oral dietary, 100 mg/kg/day, day 90, 12 h).
`CC(C)(C(=O)N1CCOc2c(C#N)cncc2C1)C(F)F` — result for “subjects with TEAE”: 0% (item: abnormal urine odour; human, both sexes; oral, 20 mg twice daily, 14 days, multiple ascending dose).
`CN1CCN(c2cccc3c2CCN(C(=O)/C=C/c2c(-n4cnnn4)ccc(Cl)c2F)[C@@H]3C(=O)Nc2ccc(C(=O)O)cc2)C(=O)C1` — result for “discontinuations due to adverse events”: 0% (healthy human subjects; intravenous infusion, 1.5 mg/h, 2 h).
With `COc1cccc(OC)c1-c1cc(C(=O)NC2(C(=O)O)C3CC4CC(C3)CC2C4)nn1-c1ccc(C(=O)N(C)CCCN(C)CCCN(C)C(=O)CN2CCN(CC(=O)[O-])CCN(CC(=O)[O-])CCN(CC(=O)[O-])CC2)cc1C(C)C.[177Lu+3]` (stereo not drawn) the tumour-to-bone ratio was 11.5 (mouse, HT-29 xenograft; 4 h post injection, biodistribution; reference: tumour over bone uptake).
With `N#Cc1ccc([C@H]2COC[C@@H](C3CCCC3)N2)cc1` the solubility was over 750 µM (shake-flask, LC-HRMS; aqueous buffer; 16 h, pH 6.8).
Under “participants with TEAE”, `Cc1ccc(Sc2ccccc2N2CCNCC2)c(C)c1` is recorded as 0% (item: Dizziness; healthy adult men; oral, 5 mg daily, 12 days).
With `Nc1nc2c(ncn2COCCO)c(=O)[nH]1` the solubility was 312 µg/mL (methanol + ethanol; 24 h, 298.2 K, mass fraction 0.9).
`Cn1cc(-c2ccc(-c3cncc(Cl)c3N3CCC4(CCNC4=O)CC3)cc2)cn1`: “log2 fold change” 6.47 (COLO 205; gene expression, microarray, item: CARD6 mRNA; concentration not given, 6 h; reference: untreated cells).
`O=S(=O)(c1ccc(-c2ccc3nccc(Nc4ccncn4)c3c2)cc1)N1CCOCC1` gave a brain concentration of 87.4 ng/g (female BALB/c mice, brain; intraperitoneal, 10 mg/kg, 0.08 h, mean).
The unbound AUClast of `CCO[C@H]1CCN(Cc2c(OC)cc(C)c3[nH]ccc23)[C@H](c2ccc(C(=O)O)cc2)C1` is reported as 3920 ng·h/mL (human healthy controls, plasma; oral, 200 mg single dose, mean).
`N#Cc1ccc2c(c1)[C@H]1CCCN(C(=O)c3ccc4[nH]cnc4c3)[C@H]1C2`: “Cmax steady state” 14800 nM (human, plasma; oral, 240 mg once daily, steady state).
With `O=C(O)CNc1ccc2nncn2n1` the Kd was 780 µM (USP13 ZnF-UBD domain).
With `C[C@H]1CN(C(=O)CC#N)[C@]12CCN(c1ncnc3[nH]ccc13)C2` the Cmax was 99.3 ng/mL (healthy adults, plasma; oral, 12 mg single dose, day 1, geometric mean).
`CCc1cc(C(=O)NC)c2nccc(N3CCc4c(cc(Cn5ccnc5)cc4-c4cn(C)nc4C(F)(F)F)C3=O)c2c1` — result for “red cell distribution width”: 12.9 ± 0.77% (Sprague Dawley rats; oral, 100 mg/kg once daily, 7 days).
`N#Cc1cccc(-c2ccc3ncc(-c4cc(F)cc(F)c4)c(N4CCC(N)CC4)c3c2)c1O`: “total radioactivity recovered” 3.5% (healthy male, urine; oral, 20 mg, 72 h, profiled samples; reference: dose).
The biodistribution of `O=c1[nH]c(=O)n([C@@H]2O[C@H](CO)[C@@H](O)[C@@H]2F)cc1CCCC[18F]` is reported as 0.24 ± 0.04 %ID/g (nude mice, RG2 tumour, liver; intravenous, dose not given, 2 h).
The tracer uptake of `N[C@@H](C[18F])C(=O)O` is reported as 1.19 ± 0.14 %ID/cc (PET imaging; female athymic nude mice, U-87 MG xenograft, muscle; intravenous, 30 min).
For `Cc1ccc([C@@H]2O[C@H](CO)[C@@H](O)[C@H](O)[C@H]2O)cc1Cc1ccc(-c2ccc(F)cc2)s1`, “urinary sodium excretion change” read -25.6 mEq (Japanese type 2 diabetes patients; 25 mg, day 6, 24 h urine collection; reference: baseline).
For `OC[C@H]1O[C@@H](c2ccc(F)c(Cc3cc4ccccc4s3)c2)[C@H](O)[C@@H](O)[C@@H]1O`, “hypoglycaemia-related adverse event” read 3% (Japanese patients, type 1 diabetes; oral, 25 mg/day, onset day 7; reference: patients).
`CNC(=O)c1ccc(-c2cnc3ncc(Cc4ccc5ncccc5c4)n3n2)cc1F`: “Lymphocyte count decreased dose reduction/interruption” 1% (Japanese patients; oral, 400 mg, any grade).
`CC1(CNC(=O)[C@H](CN)NC(=O)c2ccc(-c3ccccc3)cc2)NC(=O)NC1=O` (stereo partly drawn) has a solubility of 3260 µg/mL (aqueous buffer; pH 7.4).
For `O=c1[nH]c(=O)n([C@H]2C[C@H](O)[C@@H](CO)O2)cc1CCC[18F]`, the biodistribution was 0.45 ± 0.16 %ID/g (male CD-1 nu/nu mice, RG2 tumour, bone; intravenous, dose not given, 2 h).
For `CCN1/C(=C/C(C)=O)Sc2ccc(F)cc21`, “systolic blood pressure” read 117 ± 8 mmHg (cynomolgus monkey; oral, 100 mg/kg, 6 h post-dose).
`C[C@H](CCC(=O)NCC(=O)O)[C@H]1CC[C@H]2[C@@H]3[C@H](O)C[C@@H]4C[C@H](O[C@@H]5O[C@H](C(=O)O)[C@@H](O)[C@H](O)[C@H]5O)CC[C@]4(C)[C@H]3CC[C@]12C` has a Cmin of 15.6 ± 4 nM (human, plasma; control).
For `Cc1cc([C@H]2C[C@H]3[C@@H](CF)SC(N)=N[C@@]3(c3ccc(F)cc3F)CO2)on1`, the brain concentration was 952 nM (male 129/SVE mouse, brain; subcutaneous, 30 mg/kg, 3 h).
For `CCc1c(-c2ccccc2)c(-c2ccccc2)nn1-c1ccccc1-c1cccc(OCC(=O)O)c1`, the Cmax/dose was 126 kg·ng/mL/mg and 209 kg·ng/mL/mg and 131 kg·ng/mL/mg (Sprague-Dawley rat; oral).
`Cc1c(-c2ccc(N3CCc4cccc(C(=O)Nc5nc6ccccc6s5)c4C3)nc2C(=O)O)cnn1CC12CC3(C)CC(C)(C1)CC(OCCNCC[C@H](O)CO)(C3)C2` — result for “QRS duration change”: 1 ms (beagle dog, male, anaesthetised; intravenous infusion, 0.3 mg/kg/min, 60 min; reference: vehicle).
With `C[C@@H](NC(=O)N1C(=O)[C@H](Cc2ccnc(N)c2)[C@H]1C(=O)O)C1CCCCC1` the Css was 4300 ng/mL (UPLC-MS/MS; healthy adult Chinese volunteers, plasma; continuous intravenous infusion, 1.5 mg/kg/h, day 1 of 5-day infusion, geometric mean).
`CC(C)(C)c1ccc([C@@H]2COC[C@H](c3ccc(F)c(C#N)c3)N2)cc1` has a solubility of under 4 µM (shake-flask, LC-HRMS; aqueous buffer; 16 h, pH 6.8).
Under “elimination rate constant”, `CCNCCCNC/C=C\CNCCCNCC` is recorded as 3.55 h⁻¹ (LC-MS/MS; human cancer patients, plasma; intravenous infusion 60 min, 150 mg, median, cycle 1).
`Cc1cc(C(=O)NC(C)(C)COc2cccc3c2C(N)=NS(=O)(=O)N3)cc(C)n1` has an AUC(last) ratio of 0.68 (Sprague-Dawley rat, plasma; oral, 100 mg/kg, vehicle 1% methylcellulose; reference: female over male).
`CCn1c(=O)c(-c2cc(NC(=O)Nc3ccccc3)c(F)cc2Br)cc2cnc(NC)cc21`: “participants with grade ≥ 3 TEAE” 0% (item: accidental overdose; healthy human, matched to mild hepatic impairment; oral, 50 mg single dose).
For `CC1(C)CCC(CN2CCN(c3ccc(C(=O)NS(=O)(=O)c4ccc(NCC5CCOCC5)c([N+](=O)[O-])c4)c(Oc4cnc5[nH]ccc5c4)c3)CC2)=C(c2ccc(Cl)cc2)C1`, “absolute neutrophil count” read 6200 cells/µL and 3400 cells/µL (human, blood; concentration not given, visit 2 after treatment).
For `Cn1cc(Nc2nccc(-c3ccc4c(c3)CN(C3COC3)CC[C@H]4NC(=O)c3cn(C(C)(C)C)nn3)n2)cn1`, “percent change from baseline” read 5.92% (item: CD3+ T cell count; human, clinical trial, whole blood; 150 mg twice daily, follow-up).
`O=C(O)CN1Cc2ccccc2C1=O` gave a Kd of over 1000 µM (USP13 ZnF-UBD domain).
`CC1(C)OC[C@H](c2ccc(C(F)(F)F)cc2)N[C@@H]1c1ccc(Cl)c(Cl)c1` gave a solubility of under 4 µM (shake-flask, LC-HRMS; aqueous buffer; 16 h, pH 6.8).
Under “incidence of flatulence”, `CCO[C@H]1CCN(Cc2c(OC)cc(C)c3[nH]ccc23)[C@H](c2ccc(C(=O)O)cc2)C1` is recorded as 14.3% (PNH patients, active haemolysis; oral, 100 mg, 8 weeks, treatment).
For `CCOC(=O)N1C[C@@H](C2CCCC2)N[C@@H](c2ccc(C(C)(C)C)cc2)C1`, the solubility was under 4 µM (shake-flask, LC-HRMS; aqueous buffer; 16 h, pH 6.8).
Under “decreased appetite incidence”, `NC1(C(=O)N[C@@H](CCO)c2ccc(Cl)cc2)CCN(c2nc[nH]c3nccc2-3)CC1` is recorded as 0% (human mCRPC patients; oral, twice daily, 4/7 days, grade 3/4, treatment-related, together with: enzalutamide 160 mg daily).
For `CCOC(=O)N1C[C@@H]([C@H](C)CC)N[C@@H](C(C)C)C1`, the solubility was over 750 µM (shake-flask, LC-HRMS; aqueous buffer; 16 h, pH 6.8).
For `Cc1cc(C)c(CNC(=O)c2cc(Cl)c3c(c2C)O[C@@](C)([C@H]2CC[C@H](N(C)C)CC2)O3)c(=O)[nH]1`, “grade ≥3 adverse event Neutropenia” read 8.3% (relapsed/refractory NHL patients; oral, 200 mg once daily, onset after cycle 1 day 1).

Repeated from above:
`C=CC(=O)N1CCC([C@@H]2CCNc3c(C(N)=O)c(-c4ccc(Oc5ccccc5)cc4)nn32)CC1`: “stability relative error” 5.7% (rat plasma; 800 ng/mL, 4 h, 10 °C, autosampler; reference: nominal concentration).
`CNCc1ccc(-c2[nH]c3cc(F)cc4c3c2CCNC4=O)cc1` gave a vomiting incidence of 66.7% (human patients; oral, 840 mg twice daily, all grades).
With `COc1cccc(-c2n[nH]c(SCc3ccccn3)n2)c1OC` the plasma concentration was 10200 ng/mL (Sprague-Dawley rats, both sexes; oral dietary, 100 mg/kg/day, day 90, 12 h).
`CC(C)(C(=O)N1CCOc2c(C#N)cncc2C1)C(F)F` — result for “subjects with TEAE”: 0% (item: abnormal urine odour; human, both sexes; oral, 20 mg twice daily, 14 days, multiple ascending dose).
`CN1CCN(c2cccc3c2CCN(C(=O)/C=C/c2c(-n4cnnn4)ccc(Cl)c2F)[C@@H]3C(=O)Nc2ccc(C(=O)O)cc2)C(=O)C1` — result for “discontinuations due to adverse events”: 0% (healthy human subjects; intravenous infusion, 1.5 mg/h, 2 h).
